Assay results of several laboratories.
Parts stem from different laboratories: compare values within a part only. Positions count from the first letter of the parent shown.

Sample 1 — technique: universal PBM; molecule type: double-stranded DNA, one strand shown; matrix: in vitro; concentration: 600 nM; reading: higher = stronger binding
Target: Sal-like protein 4, full length isoform A (SALL4, Homo sapiens, UniProt Q9UJQ4, residues 1-1053)
Sequence of UniProt Q9UJQ4 (whole entry, looked up): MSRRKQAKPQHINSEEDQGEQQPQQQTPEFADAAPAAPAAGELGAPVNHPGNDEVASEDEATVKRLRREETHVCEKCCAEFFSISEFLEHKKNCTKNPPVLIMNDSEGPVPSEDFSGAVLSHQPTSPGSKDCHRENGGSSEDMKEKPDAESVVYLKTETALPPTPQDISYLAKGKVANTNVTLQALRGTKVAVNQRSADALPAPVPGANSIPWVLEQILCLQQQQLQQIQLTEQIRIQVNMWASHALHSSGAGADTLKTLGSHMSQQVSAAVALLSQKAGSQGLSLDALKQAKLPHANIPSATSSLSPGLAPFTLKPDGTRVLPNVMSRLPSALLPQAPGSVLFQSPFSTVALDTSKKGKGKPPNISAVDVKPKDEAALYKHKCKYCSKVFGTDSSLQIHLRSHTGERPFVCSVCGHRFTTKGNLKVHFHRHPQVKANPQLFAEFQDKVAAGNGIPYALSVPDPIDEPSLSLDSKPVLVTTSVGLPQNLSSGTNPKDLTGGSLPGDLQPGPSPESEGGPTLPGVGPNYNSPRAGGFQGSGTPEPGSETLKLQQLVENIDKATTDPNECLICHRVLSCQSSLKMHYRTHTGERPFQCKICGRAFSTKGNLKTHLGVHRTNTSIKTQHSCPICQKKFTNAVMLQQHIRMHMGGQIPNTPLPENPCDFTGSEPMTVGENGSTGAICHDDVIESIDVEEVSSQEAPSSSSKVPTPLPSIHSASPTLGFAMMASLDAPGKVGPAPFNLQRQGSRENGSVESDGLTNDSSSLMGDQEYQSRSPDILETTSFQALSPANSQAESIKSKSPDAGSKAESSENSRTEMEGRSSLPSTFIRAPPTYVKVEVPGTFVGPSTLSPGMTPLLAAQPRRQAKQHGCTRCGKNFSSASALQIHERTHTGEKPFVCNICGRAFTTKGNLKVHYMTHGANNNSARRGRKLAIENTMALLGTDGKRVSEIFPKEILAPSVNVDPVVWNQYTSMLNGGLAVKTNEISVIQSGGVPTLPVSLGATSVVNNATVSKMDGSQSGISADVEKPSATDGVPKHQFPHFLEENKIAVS
Notes: 8-mer, flanks averaged, mean of replicates
| Sequence | E-score |
| --- | --- |
| AGTGAACA | 0.0333 |
| AGCGCGGA | -0.201 |
| AATGTCAT | 0.167 |
| AGTCGCTC | -0.135 |
| AAACATCA | 0.218 |
| ATATGCCG | 0.11 |
| GCGCTGGA | -0.343 |
| ACGTGAGG | -0.145 |
| ATAAAGAT | 0.318 |
| CAAAAGCG | -0.0986 |
| ATTGCAGG | 0.0988 |
| TACAACCA | 0.16 |
| CTGATATA | 0.309 |
| TAGAAAAA | 0.223 |
| ACCTCACA | -0.1 |
| ACAGCGAC | -0.226 |
| TCAAAAAA | 0.266 |
| GACGTCCA | -0.0518 |
| ATGAAGAC | 0.146 |
| GGGACCCC | -0.428 |
| ATATGCAA | 0.235 |
| CTCATCTC | 0.000625 |
| CGGTGTAC | -0.147 |

Sample 2 — target: CCNB1, cyclin fold, Cln2 fusion (human); technique: yeast growth competition, sequencing; matrix: yeast; notes: weak parent motif; relative to: not given; reading: higher = stronger binding
Starting sequence: SAMHD1 docking peptide (human); ASKSRVQLFKDDP
| Substitution | normalised enrichment score |
| --- | --- |
| ASKSRLQLFKDDP [V6L] | 0.355 |
| ASKSRVQLFKKDP [D11K] | 0.394 |
| ASKSRVQLFKDQP [D12Q] | 0.0131 |
| ASKSRVQLFKDEP [D12E] | 0.484 |
| ASKSRVQLFCDDP [K10C] | 0.28 |
| AYKSRVQLFKDDP [S2Y] | 0.439 |
| ASKSRVQLFRDDP [K10R] | 0.192 |
| ASKSRVQLFKIDP [D11I] | 0.328 |
| ASKTRVQLFKDDP [S4T] | 0.503 |
| ASKSRTQLFKDDP [V6T] | 0.217 |
| ASKSRVQIFKDDP [L8I] | -0.208 |
| ASKSRVQFFKDDP [L8F] | 0.235 |
| ASKSRVILFKDDP [Q7I] | -0.296 |
| ASKSRVQEFKDDP [L8E] | 0.233 |
| ASKSPVQLFKDDP [R5P] | -0.57 |
| AQKSRVQLFKDDP [S2Q] | -0.00286 |
| ASKSRVQLQKDDP [F9Q] | -0.00245 |
| ASKSAVQLFKDDP [R5A] | 0.371 |
| AMKSRVQLFKDDP [S2M] | 0.249 |
| ASFSRVQLFKDDP [K3F] | 0.352 |
| ASKSRVQLFKDGP [D12G] | 0.186 |
| ASKSRVQLCKDDP [F9C] | 0.125 |
| ASKSEVQLFKDDP [R5E] | 0.216 |
| ASKSRVQLFKDMP [D12M] | 0.102 |
| ASKSRVQLFHDDP [K10H] | 0.105 |

Sample 3 — technique: RNA Bind-n-Seq; molecule type: RNA; matrix: in vitro; concentration: 365 nM; relative to: no-protein control; reading: higher = stronger binding
Target: RNA binding protein fox-1 homolog 2, RRM domain, GST-SBP tag (RBFOX2, Homo sapiens, UniProt O43251-10, residues 100-194)
Notes: natural RNA segment, single round, ends assumed
Shared flanks, not repeated: GGGAGUUCUACAGUCCGACGAUC … UGGAAUUCUCGGGUGCCAA
Residues (chain): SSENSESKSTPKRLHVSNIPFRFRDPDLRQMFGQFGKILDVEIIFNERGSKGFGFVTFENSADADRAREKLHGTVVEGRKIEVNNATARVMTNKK
| Sequence | RBNS enrichment (R) |
| --- | --- |
| AGUCUGCCCCCAUUUCCUUUUCCUAUAAUCCUGCCUUCCAGGGUUCCCCCCUCCCUGAAAUUUGUCCUUCAGGAGUAACCCCUACCCACCCCUGUCCCUGUGAGUCUGGA | 1.1 |
| UUUAUUUUACACCACCUUAAAAAUUAUAUGAGAACAAGGUACAUGCAUUAUGUGUCACAUUACUGGGCAAACUGUUCAAAUAUUUUUUUUAAACCUCCCUGUAUAGAAAA | 0.816 |
| ACACGUUUUCAUGAAGGAAUAACUAAGUUAAAGUGAAAAUGGUUGUGAUUUACAGAAAUAAAAUCCCAGUGUCCACUCAAUGCUGGUCUGACUCAGAUCCAGUUGGGUGG | 0.284 |
| CUGUGGGCCAGAAAGCAGGCACCAGGGCUGACCUCAAGGCCGUAUCAGAGGGCCAAGCAGAGUUCUUUUGGAUACCUGCUUUUCAUCCCACAGGGCCUUAGAGUCAGAGG | 0.342 |
| AGCCCAACACCACCUUCCUCCUGGCUUCCAGGGGGCAGCCCAGUGGAAUGGAAAGAAUGUGGGAUUUGGAGUCAGACAAGCCUGAGUCCAGUUCCCCGUUUAGAACUCAU | 0.192 |
| UCAGCUCCCAAAGGCCCACUGCAGUGGUGGUUCAGUGAGCACUCUGAUGAGUGCUGAUGGGCUAACCCUACCCUGUACAAGGGCUCAUAAGGCUACUAAGCAUUAGGGCC | 0.213 |
| CCUGUACCCUGGUGUAGCUUUUGUGUUGAAGACACUCUUGGGUGUGCACCCUAUUCAGGUCAGGGACACUGCCACCUCAUGGUCUGAUUCAGGGGCAUUUUUUUUUUUAG | 0.619 |
| GCUAAGUCUAAAUUGUCUUUUCAUUUCAUGAUGCAUUUUUUCUCUUUUGUCAGGAUAACAUCAUAUAGCAUCUUGUUUGUUUUUCCUAAUCUCUAUGUACAUAUCUAUCU | 1.66 |

Sample 4 — technique: RNA Bind-n-Seq; molecule type: RNA; matrix: in vitro; concentration: not given; relative to: input RNA pool; reading: higher = stronger binding
Target: RING finger protein unkempt homolog, zinc fingers 1-6, GST-SBP tag (UNK, Homo sapiens, UniProt Q9C0B0, residues 30-357)
Sequence of UniProt Q9C0B0 (30-357, looked up): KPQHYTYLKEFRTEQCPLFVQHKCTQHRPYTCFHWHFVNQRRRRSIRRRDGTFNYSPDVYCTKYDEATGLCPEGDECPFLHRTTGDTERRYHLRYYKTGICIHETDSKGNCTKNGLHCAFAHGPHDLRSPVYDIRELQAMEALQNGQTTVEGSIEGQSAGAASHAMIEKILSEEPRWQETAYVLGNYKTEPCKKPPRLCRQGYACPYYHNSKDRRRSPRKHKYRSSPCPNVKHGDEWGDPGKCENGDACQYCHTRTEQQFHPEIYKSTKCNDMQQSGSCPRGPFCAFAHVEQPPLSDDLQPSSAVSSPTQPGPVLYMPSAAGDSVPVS
Notes: RNA with constant flanks, human-mouse chimeric sites, ends assumed
Shared flanks, not repeated: GGGAGUUCUACAGUCCGACGAUC … CAACAGAGGAUUGAGCAUCA
| Sequence | bound/input enrichment [ratio] |
| --- | --- |
| CUCAGAGAUGUGGCAUAUCAAUAUGUGAAAAAGGGGGCUCGUAUAUUUGUGGAAGGGAAAGUGGACUAUGGCGAGUACAUGGAUAAAAAUAAUGUGAGGCGGCAAGCAACAACAAUCAUA | 0.405 |
| CUGGCACUGUAUCAGAUAUAUUAAUUUUUUAAUGUAGAUGUAAUUUUAAAAAUGAAUGGCUACUUUACACGUUUAACUAGGGUUUUACUAUAUAUGUGUACAUAUGUAUAUAUAUAUAUA | 3.88 |
| GAAACAUUUAAAUUUAAAGAAGCUGUUGUUUUAGGGAGUACGGACUUUCUAGAAGAUGAUAUAGAGAAAAUUGUAGAAGAACUGGGGAAAGAGUAUAAAGGCAAUGCCUACCAUCUGAUG | 2.84 |
| UCAGAAGCUGUGCUGGGUCACUUUUCAUAUCCAGAUCCUUCACAGUGGACAGAUGAAGAACUGGGAAUCCCUCCUGAUGACGAGGACUGAAGGUGUAAACUCUCUGGACGAGUAGGAGCA | 0.466 |
| CCCACGCCUCCUCUCCCACAGGCCCAAGAUAUAACCCACCAGUGCCUUUUGUCUUCCCGUUAGCUUUGUCAAUCACGCCUGUCCUCUCACGCCCACACCAAGUGCCCAAAGUGGGGAGGG | 15.6 |
| GUGUCCUGCUUUCAACUAUCACUGAGGAGGCAUCUCUACUGUUCUGUGAGCAUCAGGACUGUAGCGCUGUGUCACCACAUGAGAGUUCAGAAGCAGCCUUUCUGUGGAGGGUGGGAAUGA | 0.125 |
| CACGUGUCUGCAGUACUUGAUGUGGAUUACUCUCCCACUGGGAAGGAGUUUGUGUCUGCCAGCUUUGAUAAGUCUAUUAGAAUCUUUCCUGUGGACAAGAGCCGAAGCAGGGAAGUGUAU | 0.188 |
| UGACAAGGGCACUGCAGAGCCAUGCCUUUCUUGGACAUACAGAAAAAGCUGGGCAUCAGCCUGGACCGGCACUUUAUAAUCCAGAGUGCAGAACAGCCCUAUAAGAACGCCGCUCGGUGC | 0.0916 |

Repeated from above (sample 3):
| Sequence | RBNS enrichment (R) |
| --- | --- |
| ACACGUUUUCAUGAAGGAAUAACUAAGUUAAAGUGAAAAUGGUUGUGAUUUACAGAAAUAAAAUCCCAGUGUCCACUCAAUGCUGGUCUGACUCAGAUCCAGUUGGGUGG | 0.284 |
| CUGUGGGCCAGAAAGCAGGCACCAGGGCUGACCUCAAGGCCGUAUCAGAGGGCCAAGCAGAGUUCUUUUGGAUACCUGCUUUUCAUCCCACAGGGCCUUAGAGUCAGAGG | 0.342 |
| AGCCCAACACCACCUUCCUCCUGGCUUCCAGGGGGCAGCCCAGUGGAAUGGAAAGAAUGUGGGAUUUGGAGUCAGACAAGCCUGAGUCCAGUUCCCCGUUUAGAACUCAU | 0.192 |
| UCAGCUCCCAAAGGCCCACUGCAGUGGUGGUUCAGUGAGCACUCUGAUGAGUGCUGAUGGGCUAACCCUACCCUGUACAAGGGCUCAUAAGGCUACUAAGCAUUAGGGCC | 0.213 |
| CCUGUACCCUGGUGUAGCUUUUGUGUUGAAGACACUCUUGGGUGUGCACCCUAUUCAGGUCAGGGACACUGCCACCUCAUGGUCUGAUUCAGGGGCAUUUUUUUUUUUAG | 0.619 |
